Measurements collected from several papers.
Each line is one published result; not all experiments were run side by side. Values joined by “and” are separate records of one study, mostly repeats; a detail may differ. ± gives the spread as reported.
Nuclear receptor subfamily 2 group C member 2 ligand-binding domain: Nuclear receptor subfamily 2 group C member 2, ligand-binding domain (Homo sapiens, UniProt P49116)
Sequence of UniProt P51575 (whole entry, unmodified, looked up): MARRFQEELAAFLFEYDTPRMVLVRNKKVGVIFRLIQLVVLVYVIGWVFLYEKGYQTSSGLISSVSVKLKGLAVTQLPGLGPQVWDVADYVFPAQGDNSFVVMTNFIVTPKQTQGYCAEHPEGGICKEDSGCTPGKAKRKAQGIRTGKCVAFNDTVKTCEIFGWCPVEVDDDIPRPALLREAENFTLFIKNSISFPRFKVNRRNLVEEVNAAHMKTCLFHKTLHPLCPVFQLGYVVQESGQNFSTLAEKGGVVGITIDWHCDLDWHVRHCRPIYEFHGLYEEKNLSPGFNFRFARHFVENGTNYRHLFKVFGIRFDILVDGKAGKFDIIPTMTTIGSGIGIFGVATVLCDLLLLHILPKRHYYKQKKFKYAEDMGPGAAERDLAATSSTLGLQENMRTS
Sequence of UniProt O14980 (whole entry, looked up): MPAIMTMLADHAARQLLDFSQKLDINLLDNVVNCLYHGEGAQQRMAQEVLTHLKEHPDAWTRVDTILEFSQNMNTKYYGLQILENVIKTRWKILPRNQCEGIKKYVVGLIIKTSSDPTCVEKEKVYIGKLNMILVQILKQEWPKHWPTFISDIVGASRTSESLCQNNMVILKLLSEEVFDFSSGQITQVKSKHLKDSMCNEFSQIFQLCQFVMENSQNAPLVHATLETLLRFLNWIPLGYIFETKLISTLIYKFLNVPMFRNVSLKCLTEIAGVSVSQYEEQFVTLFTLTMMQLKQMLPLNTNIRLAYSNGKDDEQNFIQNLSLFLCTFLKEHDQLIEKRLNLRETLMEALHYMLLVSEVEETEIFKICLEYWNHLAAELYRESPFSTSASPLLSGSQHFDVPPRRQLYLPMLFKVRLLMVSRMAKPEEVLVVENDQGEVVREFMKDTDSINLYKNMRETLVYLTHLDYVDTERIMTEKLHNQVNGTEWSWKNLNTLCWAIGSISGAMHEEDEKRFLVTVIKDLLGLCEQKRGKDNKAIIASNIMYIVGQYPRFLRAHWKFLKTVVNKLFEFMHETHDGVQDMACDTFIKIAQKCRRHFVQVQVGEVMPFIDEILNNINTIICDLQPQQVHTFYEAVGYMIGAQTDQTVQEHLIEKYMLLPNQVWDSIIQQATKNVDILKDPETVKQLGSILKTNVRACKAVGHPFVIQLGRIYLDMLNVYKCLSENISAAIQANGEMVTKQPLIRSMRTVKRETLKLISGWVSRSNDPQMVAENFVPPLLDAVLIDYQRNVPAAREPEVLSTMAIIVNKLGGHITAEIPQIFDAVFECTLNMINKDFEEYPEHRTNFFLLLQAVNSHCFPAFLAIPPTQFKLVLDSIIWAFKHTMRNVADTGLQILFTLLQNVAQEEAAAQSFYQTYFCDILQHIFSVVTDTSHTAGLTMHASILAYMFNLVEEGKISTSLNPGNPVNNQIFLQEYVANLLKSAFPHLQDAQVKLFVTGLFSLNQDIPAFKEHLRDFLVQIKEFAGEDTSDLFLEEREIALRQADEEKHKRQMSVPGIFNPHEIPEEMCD
Sequence of UniProt P49116 (whole entry, looked up): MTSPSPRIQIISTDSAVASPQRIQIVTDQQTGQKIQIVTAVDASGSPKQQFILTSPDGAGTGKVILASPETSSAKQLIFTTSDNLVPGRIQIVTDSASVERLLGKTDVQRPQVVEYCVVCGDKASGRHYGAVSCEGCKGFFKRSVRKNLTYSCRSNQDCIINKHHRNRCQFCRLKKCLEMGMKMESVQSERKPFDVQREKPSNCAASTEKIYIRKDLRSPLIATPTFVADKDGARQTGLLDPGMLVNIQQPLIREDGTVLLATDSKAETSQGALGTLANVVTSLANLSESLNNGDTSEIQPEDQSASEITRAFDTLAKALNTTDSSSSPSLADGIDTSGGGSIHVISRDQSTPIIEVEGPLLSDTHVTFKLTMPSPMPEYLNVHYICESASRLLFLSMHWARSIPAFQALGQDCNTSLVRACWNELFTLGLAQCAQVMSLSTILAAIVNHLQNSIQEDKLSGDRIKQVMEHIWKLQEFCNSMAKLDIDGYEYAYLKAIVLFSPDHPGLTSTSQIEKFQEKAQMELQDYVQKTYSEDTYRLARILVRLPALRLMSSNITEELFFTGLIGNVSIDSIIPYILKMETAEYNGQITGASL
Sequence of UniProt Q13639 (whole entry, looked up): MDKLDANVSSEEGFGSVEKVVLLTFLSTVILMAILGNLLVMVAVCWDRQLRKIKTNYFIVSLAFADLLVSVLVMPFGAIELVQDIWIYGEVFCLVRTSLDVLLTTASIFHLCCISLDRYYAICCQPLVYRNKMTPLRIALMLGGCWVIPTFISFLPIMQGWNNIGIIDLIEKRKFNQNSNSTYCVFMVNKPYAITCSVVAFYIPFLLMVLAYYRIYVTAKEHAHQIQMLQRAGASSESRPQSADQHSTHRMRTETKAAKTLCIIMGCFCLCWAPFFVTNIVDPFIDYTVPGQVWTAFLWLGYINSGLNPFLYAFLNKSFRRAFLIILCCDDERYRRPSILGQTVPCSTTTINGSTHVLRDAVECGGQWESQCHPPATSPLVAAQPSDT
Sequence of UniProt Q62351 (whole entry, looked up): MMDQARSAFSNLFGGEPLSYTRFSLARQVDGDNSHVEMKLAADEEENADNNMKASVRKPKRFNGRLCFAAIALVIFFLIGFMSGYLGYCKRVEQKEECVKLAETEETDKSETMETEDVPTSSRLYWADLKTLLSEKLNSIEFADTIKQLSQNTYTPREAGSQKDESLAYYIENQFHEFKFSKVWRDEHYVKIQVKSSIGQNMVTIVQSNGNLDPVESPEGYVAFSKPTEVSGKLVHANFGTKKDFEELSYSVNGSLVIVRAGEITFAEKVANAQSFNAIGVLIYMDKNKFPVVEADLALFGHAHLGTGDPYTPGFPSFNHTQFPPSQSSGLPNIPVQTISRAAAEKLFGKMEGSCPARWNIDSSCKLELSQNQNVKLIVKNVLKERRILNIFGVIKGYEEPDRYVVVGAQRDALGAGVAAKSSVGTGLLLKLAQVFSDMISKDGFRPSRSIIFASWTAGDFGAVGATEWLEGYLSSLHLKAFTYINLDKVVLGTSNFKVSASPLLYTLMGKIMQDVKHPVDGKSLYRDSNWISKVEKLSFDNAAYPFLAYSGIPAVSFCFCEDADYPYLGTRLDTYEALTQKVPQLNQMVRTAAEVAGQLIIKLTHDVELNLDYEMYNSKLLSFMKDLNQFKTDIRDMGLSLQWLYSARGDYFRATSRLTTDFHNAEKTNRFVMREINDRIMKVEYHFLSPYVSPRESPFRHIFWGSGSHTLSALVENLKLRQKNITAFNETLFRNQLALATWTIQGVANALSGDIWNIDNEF
Sequence of UniProt Q7RTT9 (whole entry, looked up): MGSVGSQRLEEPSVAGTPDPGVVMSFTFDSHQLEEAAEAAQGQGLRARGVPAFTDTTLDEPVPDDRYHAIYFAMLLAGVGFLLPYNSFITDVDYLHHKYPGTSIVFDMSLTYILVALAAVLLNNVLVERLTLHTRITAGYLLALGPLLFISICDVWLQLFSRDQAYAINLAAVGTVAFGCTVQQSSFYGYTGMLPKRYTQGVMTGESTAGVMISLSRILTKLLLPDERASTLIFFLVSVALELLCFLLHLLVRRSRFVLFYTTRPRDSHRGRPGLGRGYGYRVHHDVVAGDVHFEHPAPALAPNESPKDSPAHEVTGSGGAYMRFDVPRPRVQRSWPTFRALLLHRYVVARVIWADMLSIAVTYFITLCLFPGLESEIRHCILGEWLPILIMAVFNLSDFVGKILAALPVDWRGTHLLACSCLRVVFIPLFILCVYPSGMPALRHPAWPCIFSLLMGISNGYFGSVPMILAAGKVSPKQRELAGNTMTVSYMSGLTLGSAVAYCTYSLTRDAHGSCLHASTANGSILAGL
Sequence of UniProt Q5AP53 (whole entry, looked up): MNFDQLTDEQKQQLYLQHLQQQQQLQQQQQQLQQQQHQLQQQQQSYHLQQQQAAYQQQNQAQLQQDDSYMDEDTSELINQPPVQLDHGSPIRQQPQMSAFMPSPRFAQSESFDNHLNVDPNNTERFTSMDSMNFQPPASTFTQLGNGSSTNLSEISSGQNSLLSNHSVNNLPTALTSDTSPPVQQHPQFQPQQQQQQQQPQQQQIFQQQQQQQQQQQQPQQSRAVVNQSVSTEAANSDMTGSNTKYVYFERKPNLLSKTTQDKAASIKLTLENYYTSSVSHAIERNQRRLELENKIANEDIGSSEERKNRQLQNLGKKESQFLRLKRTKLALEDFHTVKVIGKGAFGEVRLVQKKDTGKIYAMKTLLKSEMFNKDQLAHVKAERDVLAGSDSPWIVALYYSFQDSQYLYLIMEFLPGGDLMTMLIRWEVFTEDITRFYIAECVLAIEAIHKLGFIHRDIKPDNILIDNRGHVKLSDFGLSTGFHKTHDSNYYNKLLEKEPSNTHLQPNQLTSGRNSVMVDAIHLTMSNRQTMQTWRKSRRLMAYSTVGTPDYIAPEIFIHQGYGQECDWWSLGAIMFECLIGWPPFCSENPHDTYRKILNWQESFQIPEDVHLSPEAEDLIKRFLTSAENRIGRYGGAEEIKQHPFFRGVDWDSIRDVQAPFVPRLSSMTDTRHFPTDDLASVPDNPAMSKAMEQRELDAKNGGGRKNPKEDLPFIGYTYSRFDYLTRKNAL
Sequence of UniProt P08908 (whole entry, looked up): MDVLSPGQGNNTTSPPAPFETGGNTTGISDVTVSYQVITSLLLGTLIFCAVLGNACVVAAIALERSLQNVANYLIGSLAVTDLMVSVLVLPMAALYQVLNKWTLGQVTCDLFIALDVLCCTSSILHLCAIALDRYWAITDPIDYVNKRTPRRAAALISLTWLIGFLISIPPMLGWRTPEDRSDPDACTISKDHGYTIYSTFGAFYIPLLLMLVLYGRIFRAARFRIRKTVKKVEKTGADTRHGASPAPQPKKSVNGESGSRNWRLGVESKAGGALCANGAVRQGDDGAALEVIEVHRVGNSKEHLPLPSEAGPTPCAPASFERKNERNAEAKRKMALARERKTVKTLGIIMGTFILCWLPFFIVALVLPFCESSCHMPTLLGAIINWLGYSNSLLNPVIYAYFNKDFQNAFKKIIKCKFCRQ

SMILES	target or system	test	test system	conditions	how to read	endpoint	value
CCCC[C@H](NC(=O)[C@H](C)c1c(C)[nH]c2ccc(O)cc12)c1ncc(-c2cc3ccccc3nc2OC)[nH]1	HTR1A (Homo sapiens, UniProt P08908)	–	–	10 µM	–	effect	75%
CC[S+]([O-])c1nc(-c2ccccc2)cc(C(F)(F)F)n1 (stereo not shown)	Exportin-1 (XPO1, Homo sapiens, UniProt O14980)	nuclear export, high content imaging	HeLa Kyoto reporter	0.0158 µM, 2 h	–	cells with nuclear reporter	1.62% and 0.99% and 4.49%
C=CC(=O)N1CCC(COCC(=O)N2CCN(c3nc(-c4cnc(N)nc4C(F)F)nc(N4CCOC[C@@H]4C)n3)CC2)CC1	EGFR (Homo sapiens, UniProt P00533, G719C)	KINOMEscan	–	1 µM	reference: DMSO control	remaining binding	98%
O=C1OC(c2ccccc2)=N/C1=C\c1ccc(O)c(O)c1	Pancreatic alpha-amylase (Homo sapiens, UniProt P04746)	inhibitor, Lineweaver-Burk	–	300 ppm, added: starch substrate	–	Vmax	0.035 mg/mL/min
CCCNC(C)C(=O)Nc1ccccc1C (stereo not shown)	Nuclear receptor subfamily 2 group C member 2 ligand-binding domain	SPR imaging	–	600 nM	–	koff	1.15e-05 s⁻¹
O=C(CN1CCO[C@@H](COc2ccccn2)C1)N1CCc2ccccc21	HTR4 (Homo sapiens, UniProt Q13639)	radioligand binding	–	concentration not given	–	inhibition	-16.8%
Cc1nc(CSc2nc(SCc3ccc(C(C)C)cc3)nc(=O)[nH]2)cs1	TOP2A (Homo sapiens, UniProt P11388)	DNA relaxation	–	125 µM, replicate 2	–	relaxed DNA	25.3%
Nc1ncnc2c1ncn2[C@@H]1O[C@H](COP(=O)(O)CP(=O)(O)OP(=O)(O)O)[C@@H](O)[C@H]1O	P2X purinoceptor 1 (P2RX1, Homo sapiens, UniProt P51575, E122A)	saturation binding	–	25 nM	–	specific binding	192 corrected cpm and 276 corrected cpm and 178 corrected cpm
COc1cc2c(c(OC)c1OC)C(=O)c1c(cc(C)c(O)c1OC)C2=O	HepaRG co-cultured with HK-2	MTT	–	133.33 µM, 24 h	reference: untreated control	cell viability	52.4 ± 4.92%
Cc1ccccc1C1CC(=O)c2c(C)nc(N)nc2C1 (stereo not shown)	Coatomer subunit beta', WD repeat domain (Homo sapiens, UniProt P35606)	binding, affinity selection mass spectrometry	–	–	reference: other proteins in batch	log fold enrichment	-0.0483
COc1cccc2c(Nc3ccc4[nH]c(C(=O)N/N=C/c5ccc(SC)cc5)cc4c3)cc(C)nc12	COS-7	–	–	3 µM, 24 h, 0.1% DMSO, unit not given	reference: vehicle control	confluence	0.9 ± 0.05
N#Cc1ccc2c(-c3ccncc3)c(-c3ccc(F)cc3)nn2c1	Serine/threonine-protein kinase CBK1 (CBK1, Candida albicans, UniProt Q5AP53)	kinase binding, competitor, MIB/MS competition, refers to: CBK1	Candida albicans cell lysate	10 µM	reference: DMSO	log2 fold change	0.583
CN(C)C(=O)C(CCN1CCC(O)(c2ccc(Cl)cc2)CC1)(c1ccccc1)c1ccccc1	Calcium-activated potassium channel subunit alpha-1, with LRRC26 γ1 subunit (KCNMA1, Homo sapiens, UniProt Q12791)	BK channel conductance, inside-out patch clamp	–	BKα/γ1, Vm 10 mV, nominally Ca2+-free	–	Hill coefficient	1.01 ± 0.27
Cc1nc2c(Cl)cccn2c1NC(=O)c1ccc(-c2ccc(N(C)C)cc2)o1	COS-7	WST-8	–	10 µM, 24 h, 0.1% DMSO, unit not given	reference: vehicle control	metabolic activity	0.94 ± 0.06
CC(C)=CCC/C(C)=C/C=C/C(C)=C/C=C/C(C)=C/C=C/C=C(C)/C=C/C=C(C)/C=C/C=C(\C)CCC=C(C)C	Beta-lactoglobulin (LGB, Bos taurus, UniProt P02754)	fluorescence quenching	–	concentration not given, 303 K	–	number of binding sites	0.98
COC(=O)[C@H]1[C@H]2C[C@@H]3c4[nH]c5cc(OC)ccc5c4CCN3C[C@H]2C[C@@H](OC(=O)c2cc(OC)c(OC)c(OC)c2)[C@@H]1OC	Nuclear receptor subfamily 2 group C member 2 ligand-binding domain	SPR imaging	–	600 nM	–	koff	4.12e-05 s⁻¹
C[C@@H]1CCO[C@H]2Cn3cc(C(=O)NCc4ccc(F)cc4F)c(=O)c(O)c3C(=O)N12	SLC29A4 (Homo sapiens, UniProt Q7RTT9)	transport	MDCK-II, transfected	5 µM, added: MPP+ 10 µM	–	inhibition	-1.18%
COc1c(O)c(C)cc2c1C(=O)c1c(cc(O)c(O)c1O)C2=O	HepaRG co-cultured with HK-2	MTT	–	133.33 µM, 24 h	reference: untreated control	cell viability	57.5 ± 6.27%
CC[C@@H](C)[C@@H](NC(=O)[C@@H](Cc1ccc(O)cc1)NC(=O)[C@H]1CCCN1C(=O)[C@@H](CCCNC(=N)N)NC(=O)[C@H](N)Cc1c[nH]cn1)C(=O)N[C@H](C)C(=O)N[C@H](Cc1c[nH]cn1)C(=O)N[C@H](CCCNC(=N)N)C(=O)N[C@@H](C(=O)N[C@H](Cc1ccc(O)cc1)C(=O)N[C@H](CO)C(=O)N[C@H](Cc1ccccc1)C(N)=O)C(C)C	Transferrin receptor protein 1 (Tfrc, Mus musculus, UniProt Q62351)	flow cytometry	B16	6 h, unit not given	reference: 0 h	surface TFRC expression	0.56
